Results from different studies.
Lines come from different studies, so protocols differ. ± gives the spread as reported.
RIPK1: Receptor-interacting serine/threonine-protein kinase 1 (RIPK1, Homo sapiens, UniProt Q13546)
Sequence of UniProt Q13546 (whole entry, looked up): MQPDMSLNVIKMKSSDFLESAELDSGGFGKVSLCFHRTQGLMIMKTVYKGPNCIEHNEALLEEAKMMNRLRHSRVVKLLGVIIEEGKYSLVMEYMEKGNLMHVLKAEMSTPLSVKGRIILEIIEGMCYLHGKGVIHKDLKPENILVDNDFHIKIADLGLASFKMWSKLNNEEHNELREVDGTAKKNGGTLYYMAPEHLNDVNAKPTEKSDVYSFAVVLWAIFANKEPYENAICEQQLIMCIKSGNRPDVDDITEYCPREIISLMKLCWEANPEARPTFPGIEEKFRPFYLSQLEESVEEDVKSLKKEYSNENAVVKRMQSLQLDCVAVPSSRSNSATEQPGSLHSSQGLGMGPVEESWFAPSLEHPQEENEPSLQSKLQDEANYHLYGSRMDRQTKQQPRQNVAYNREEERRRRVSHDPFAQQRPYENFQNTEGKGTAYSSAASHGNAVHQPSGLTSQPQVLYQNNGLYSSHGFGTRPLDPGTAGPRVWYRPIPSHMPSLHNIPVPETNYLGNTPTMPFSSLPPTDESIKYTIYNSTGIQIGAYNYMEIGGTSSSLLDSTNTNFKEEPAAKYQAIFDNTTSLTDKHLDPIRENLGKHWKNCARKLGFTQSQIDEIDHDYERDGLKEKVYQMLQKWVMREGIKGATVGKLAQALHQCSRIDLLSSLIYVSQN
ESR1: Estrogen receptor (ESR1, Homo sapiens, UniProt P03372)
Sequence of UniProt P03372 (whole entry, looked up): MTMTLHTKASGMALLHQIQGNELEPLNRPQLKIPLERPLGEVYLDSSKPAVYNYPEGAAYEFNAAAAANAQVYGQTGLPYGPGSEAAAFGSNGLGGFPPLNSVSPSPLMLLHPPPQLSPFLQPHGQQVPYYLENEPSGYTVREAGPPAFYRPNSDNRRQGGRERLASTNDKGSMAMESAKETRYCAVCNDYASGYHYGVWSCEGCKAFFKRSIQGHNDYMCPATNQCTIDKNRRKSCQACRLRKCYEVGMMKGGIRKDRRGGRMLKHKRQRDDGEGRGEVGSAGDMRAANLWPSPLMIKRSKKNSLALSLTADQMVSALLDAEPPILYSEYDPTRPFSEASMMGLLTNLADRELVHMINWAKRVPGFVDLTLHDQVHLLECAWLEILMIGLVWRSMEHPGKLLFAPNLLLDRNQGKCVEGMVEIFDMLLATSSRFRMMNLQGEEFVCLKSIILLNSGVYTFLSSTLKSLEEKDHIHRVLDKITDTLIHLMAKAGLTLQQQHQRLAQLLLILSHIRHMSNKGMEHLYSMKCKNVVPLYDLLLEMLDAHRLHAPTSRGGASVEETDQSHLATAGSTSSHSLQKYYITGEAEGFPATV
ABO G235S/G268A/L266M/R176G: Histo-blood group ABO system transferase (ABO, Homo sapiens, UniProt P16442, G235S/G268A/L266M/R176G)
Sequence of UniProt P16442 (whole entry, unmodified, looked up): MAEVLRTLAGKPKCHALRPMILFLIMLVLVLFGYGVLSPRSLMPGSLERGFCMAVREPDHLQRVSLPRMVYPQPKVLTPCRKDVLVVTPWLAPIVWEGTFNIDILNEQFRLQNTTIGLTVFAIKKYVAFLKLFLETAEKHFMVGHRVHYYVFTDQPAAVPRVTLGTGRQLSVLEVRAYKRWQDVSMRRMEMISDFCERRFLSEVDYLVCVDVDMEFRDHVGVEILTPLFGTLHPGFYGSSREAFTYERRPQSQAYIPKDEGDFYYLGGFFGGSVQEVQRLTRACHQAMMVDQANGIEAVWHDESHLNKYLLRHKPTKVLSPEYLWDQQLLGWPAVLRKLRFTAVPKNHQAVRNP
T1: DNA aptamer; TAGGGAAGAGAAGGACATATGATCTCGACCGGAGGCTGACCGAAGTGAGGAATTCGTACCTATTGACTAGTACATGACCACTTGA
Sequence of UniProt B9K712 (whole entry, unmodified, looked up): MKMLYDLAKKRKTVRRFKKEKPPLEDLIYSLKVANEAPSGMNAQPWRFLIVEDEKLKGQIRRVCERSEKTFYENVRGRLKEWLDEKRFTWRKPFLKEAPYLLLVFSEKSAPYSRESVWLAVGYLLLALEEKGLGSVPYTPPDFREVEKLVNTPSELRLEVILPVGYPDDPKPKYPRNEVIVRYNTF
Sequence of UniProt Q13772 (383-522, looked up): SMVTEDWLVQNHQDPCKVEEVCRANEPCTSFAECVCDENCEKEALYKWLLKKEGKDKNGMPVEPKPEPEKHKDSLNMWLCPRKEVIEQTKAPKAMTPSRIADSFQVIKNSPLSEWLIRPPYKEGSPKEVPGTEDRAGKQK
Sequence of UniProt Q99523 (whole entry, looked up): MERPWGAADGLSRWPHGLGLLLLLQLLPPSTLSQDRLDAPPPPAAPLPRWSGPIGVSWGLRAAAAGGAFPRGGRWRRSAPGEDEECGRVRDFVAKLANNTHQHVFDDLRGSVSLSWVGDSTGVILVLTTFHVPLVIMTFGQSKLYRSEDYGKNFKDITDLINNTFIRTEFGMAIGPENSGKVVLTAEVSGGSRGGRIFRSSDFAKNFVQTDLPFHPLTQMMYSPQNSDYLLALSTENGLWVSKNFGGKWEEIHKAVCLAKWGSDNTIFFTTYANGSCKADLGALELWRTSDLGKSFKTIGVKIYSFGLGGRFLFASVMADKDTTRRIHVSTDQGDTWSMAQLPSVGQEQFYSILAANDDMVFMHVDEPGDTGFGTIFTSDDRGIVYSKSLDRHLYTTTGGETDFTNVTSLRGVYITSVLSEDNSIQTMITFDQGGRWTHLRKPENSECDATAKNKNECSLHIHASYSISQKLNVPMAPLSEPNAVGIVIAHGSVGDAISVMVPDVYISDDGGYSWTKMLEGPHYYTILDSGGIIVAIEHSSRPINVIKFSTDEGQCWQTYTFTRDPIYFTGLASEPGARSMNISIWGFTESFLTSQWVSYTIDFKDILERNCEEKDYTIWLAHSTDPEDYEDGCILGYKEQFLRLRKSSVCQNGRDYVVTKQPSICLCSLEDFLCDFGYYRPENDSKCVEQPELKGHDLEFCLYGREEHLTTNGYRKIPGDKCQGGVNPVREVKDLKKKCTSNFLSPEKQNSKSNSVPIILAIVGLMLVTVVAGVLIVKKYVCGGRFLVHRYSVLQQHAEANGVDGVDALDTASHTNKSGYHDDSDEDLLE
Sequence of UniProt Q8R2Y0 (whole entry, looked up): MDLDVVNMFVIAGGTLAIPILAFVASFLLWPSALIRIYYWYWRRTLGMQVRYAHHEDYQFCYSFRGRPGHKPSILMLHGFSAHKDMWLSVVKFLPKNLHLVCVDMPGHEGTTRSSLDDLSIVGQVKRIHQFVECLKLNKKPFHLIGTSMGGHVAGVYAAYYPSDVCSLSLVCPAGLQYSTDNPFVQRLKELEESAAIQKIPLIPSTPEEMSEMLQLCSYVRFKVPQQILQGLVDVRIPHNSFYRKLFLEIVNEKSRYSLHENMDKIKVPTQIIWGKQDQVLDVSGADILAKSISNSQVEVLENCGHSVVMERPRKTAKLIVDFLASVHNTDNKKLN
Sequence of UniProt Q16832 (whole entry, looked up): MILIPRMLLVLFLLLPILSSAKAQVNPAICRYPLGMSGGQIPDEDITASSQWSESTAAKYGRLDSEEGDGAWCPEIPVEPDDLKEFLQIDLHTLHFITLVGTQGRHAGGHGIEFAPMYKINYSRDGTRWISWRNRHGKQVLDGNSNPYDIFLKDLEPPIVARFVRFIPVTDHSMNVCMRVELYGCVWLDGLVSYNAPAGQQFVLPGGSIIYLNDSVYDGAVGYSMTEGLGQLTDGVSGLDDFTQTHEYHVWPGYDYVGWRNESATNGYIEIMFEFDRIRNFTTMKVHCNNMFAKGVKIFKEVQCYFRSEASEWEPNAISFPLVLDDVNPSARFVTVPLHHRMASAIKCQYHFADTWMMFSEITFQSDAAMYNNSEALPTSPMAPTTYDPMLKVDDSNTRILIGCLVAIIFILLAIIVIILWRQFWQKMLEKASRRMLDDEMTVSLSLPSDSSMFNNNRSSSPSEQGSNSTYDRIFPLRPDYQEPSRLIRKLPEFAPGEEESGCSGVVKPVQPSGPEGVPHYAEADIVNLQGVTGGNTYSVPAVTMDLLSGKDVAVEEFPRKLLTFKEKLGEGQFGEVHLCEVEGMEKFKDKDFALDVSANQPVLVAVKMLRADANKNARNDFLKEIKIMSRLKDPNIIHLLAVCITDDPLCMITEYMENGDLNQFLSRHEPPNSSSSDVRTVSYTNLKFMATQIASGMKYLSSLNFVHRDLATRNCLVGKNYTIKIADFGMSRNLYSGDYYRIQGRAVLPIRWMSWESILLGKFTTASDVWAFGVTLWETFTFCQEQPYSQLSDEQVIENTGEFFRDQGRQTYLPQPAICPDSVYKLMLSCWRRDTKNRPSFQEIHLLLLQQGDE
Sequence of UniProt P49137 (whole entry, looked up): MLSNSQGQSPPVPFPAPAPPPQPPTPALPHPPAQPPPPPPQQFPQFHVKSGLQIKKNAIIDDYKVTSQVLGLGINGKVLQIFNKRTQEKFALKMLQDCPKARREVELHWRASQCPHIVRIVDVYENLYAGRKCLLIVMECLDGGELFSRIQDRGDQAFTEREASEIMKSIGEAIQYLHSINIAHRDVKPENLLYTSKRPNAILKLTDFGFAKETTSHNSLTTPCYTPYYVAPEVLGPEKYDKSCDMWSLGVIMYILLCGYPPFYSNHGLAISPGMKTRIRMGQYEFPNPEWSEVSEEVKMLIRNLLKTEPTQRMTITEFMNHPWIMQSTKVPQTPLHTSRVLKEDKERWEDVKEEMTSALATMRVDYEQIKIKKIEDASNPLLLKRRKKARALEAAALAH
Sequence of UniProt Q92731 (whole entry, looked up): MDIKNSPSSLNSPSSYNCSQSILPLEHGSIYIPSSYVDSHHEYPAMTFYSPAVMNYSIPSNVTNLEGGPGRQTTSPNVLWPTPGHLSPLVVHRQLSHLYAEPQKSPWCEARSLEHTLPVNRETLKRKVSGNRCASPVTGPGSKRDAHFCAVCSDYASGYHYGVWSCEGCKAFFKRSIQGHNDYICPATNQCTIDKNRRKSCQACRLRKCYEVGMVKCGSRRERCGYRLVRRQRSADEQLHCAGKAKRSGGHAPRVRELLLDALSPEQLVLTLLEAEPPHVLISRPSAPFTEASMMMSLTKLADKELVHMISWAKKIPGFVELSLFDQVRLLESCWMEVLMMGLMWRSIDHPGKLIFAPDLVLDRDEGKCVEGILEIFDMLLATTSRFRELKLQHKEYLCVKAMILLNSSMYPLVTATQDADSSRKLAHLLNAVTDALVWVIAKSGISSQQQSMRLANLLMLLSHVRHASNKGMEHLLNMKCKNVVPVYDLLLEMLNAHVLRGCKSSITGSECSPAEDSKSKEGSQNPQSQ

`COC(=O)c1c(Oc2ccc(F)c(NC(=O)Cc3cccc(C(F)(F)F)c3)c2)ccc2nc(NC(=O)C3CC3)sc12` has a selectivity ratio of 0.41 (RIPK1; KINOMEscan binding Kd; baseline: RIPK1 over RIPK3, higher = more RIPK1-selective).
With `CCCCOc1ccc(C(=O)OCC[N+]2(C)CC=CCC2)cc1` (stereo not drawn) the cooperativity factor was 0.0009 ± 0.0002 (CHRM5 (Homo sapiens, UniProt P08912); antagonist, measured: inositol phosphates; CHO; M5, with: carbachol).
`CCC(=C(c1ccc(Cl)cc1)c1ccc(OCCN2CCOCC2)cc1)c1ccccc1` gave a fold activation of 4.19 ± 0.44 fold (ESR1; reporter gene, agonist, yeast estrogen screen; 1 µM; baseline: DMSO).
The kon of `CCCCCCCCO[C@@H]1O[C@H](CO)[C@H](O)[C@H](O)[C@H]1O[C@@H]1O[C@@H](C)[C@@H](O)[C@@H](O)[C@@H]1O` is reported as 1.9e+07 M⁻¹ s⁻¹ (ABO G235S/G268A/L266M/R176G; methyl-TROSY NMR titration lineshape analysis; apo enzyme).
For `C[C@H](CCC(=O)N[C@@H](CCC(=O)Nc1ccc(F)nc1)C(=O)O)[C@H]1CC[C@H]2[C@@H]3[C@H](O)C[C@@H]4C[C@H](O)CC[C@]4(C)[C@H]3CC[C@]12C`, the Jmax was 0.307 (SLC10A2 (Homo sapiens, UniProt Q12908); transport, substrate; ASBT-MDCK cells; unit not given; baseline: taurocholate Jmax).
For `CCC(=O)N1CC=C(c2cc3c(Nc4cc5ncsc5cc4F)ncnc3s2)CC1`, the remaining activity was 106 ± 6% (RIPK1; enzyme activity; 1 µM; baseline: untreated).
`CSCC[C@H](NC(=O)[C@H](Cc1c[nH]c2ccccc12)NC(=O)[C@@H](NC(=O)[C@@H](NC(=O)[C@@H](NC(=O)[C@H](C)NC(=O)[C@@H](NC(=O)[C@H](C)NC(=O)[C@H](CCCCN)NC(=O)[C@H](CCCCN)NC(=O)[C@@H](NC(=O)[C@H](CC(N)=O)NC(=O)[C@H](CCC(=O)O)NC(=O)[C@@H](N)CCSC)C(C)C)[C@@H](C)O)[C@@H](C)O)[C@@H](C)O)[C@@H](C)O)C(=O)N[C@H](C(=O)N1CCC[C@H]1C(=O)N[C@H](C(=O)N[C@@H](CCCNC(=N)N)C(=O)N[C@@H](CCC(N)=O)C(=O)O)[C@@H](C)O)C(C)C` has a ΔG° of -7.9 ± 0.1 kcal/mol (Recombining binding protein suppressor of hairless (Rbpj, Mus musculus, UniProt P31266); isothermal titration calorimetry; pH 6.5, 25 °C).
The koff of `CC(=O)N(CC(=O)N(C)[C@@H](C)C(=O)N(Cc1c[nH]c2cc(Cl)ccc12)[C@@H](C)C(=O)N(C)[C@@H](C)C(=O)N(CCC(C)(C)C)[C@@H](C)C(=O)N1CCNCC1)Cc1ccccc1` is reported as 0.225 s⁻¹ (E3 ubiquitin-protein ligase Mdm2, N-terminal domain 17-125 (MDM2, Homo sapiens, UniProt Q00987); binding, SPR; PBS with Tween; 10 °C, immobilised peptoid).
`NC(=O)C1CCCCNC(=O)C(CCCNC(=O)c2cnccn2)NC(=O)C(Cc2ccco2)NC(=O)C(CC2CC2)NC(=O)C=CC(=O)N1` (stereo not drawn) gave an enrichment factor of 1.5 (MAPKAPK2 (Homo sapiens, UniProt P49137); DNA-templated library selection; one selection round).
With `Cc1nc2c(N)[n+]3cnc2n1[C@@H]1O[C@H](COP(=O)([O-])OP(=O)(O)OC[C@H]2O[C@@H]3[C@H](O)[C@@H]2O)[C@@H](O)[C@H]1O` the IC50 ratio was 53 (cADPR receptor, sea urchin; cADPR-induced Ca2+ release, antagonist; sea urchin egg homogenate; baseline: compound over 8-amino-cADPR).
`O=C1c2ccc(O)cc2OC(Oc2ccc(-c3coc4cc(O)ccc4c3=O)cc2)C1(O)c1ccc(O)cc1` (stereo not drawn) has a Hill coefficient of 0.856 (PRXC1A (Armoracia rusticana, UniProt P00433); substrate, Hill kinetic model; product formation, with: hydrogen peroxide NG).
Under “protein level ratio”, `C=C1CN(S(=O)(=O)c2ccc(C)cc2)CCCN(Cc2ccccc2)CCCN(S(=O)(=O)c2ccc(C)cc2)C1` is recorded as 2.07 (Sortilin (Homo sapiens, UniProt Q99523); SILAC mass spectrometry; SUP-T1, crude membrane fraction; 10 µM, 17 h, forward labelling; baseline: DMSO over compound).
For `CCC(=C(c1ccc(O)cc1)c1ccc(OCCN(C)CCOCCOCCOCCOCCOC)cc1)c1ccccc1` (mixture of isomers), “relative binding affinity” read 78.1 ± 12% (ESR1; ligand, radioligand competition binding; concentration not given, with: [3H]estradiol tracer; baseline: estradiol).
Under “fold increase in Kd”, `CC(C)C[C@H](NC(=O)[C@H](CC(C)C)NC(=O)[C@H](CC(N)=O)NC(=O)[C@H](Cc1c[nH]c2ccccc12)NC(=O)[C@H](Cc1ccc(O)cc1)NC(=O)[C@H](CCC(=O)O)NC(=O)[C@H](C)NC(=O)[C@@H](N)Cc1ccccc1)C(=O)O` is recorded as 5180 fold (Protein Mdm4 (MDM4, Homo sapiens, UniProt O15151); SPR competition binding; baseline: PMI).
For `CCC(=C(c1ccc(O)cc1)c1ccc(OCCN(C)CCOCCOCCOCCN(C)CCOc2ccc(C(=C(CC)c3ccccc3)c3ccc(O)cc3)cc2)cc1)c1ccccc1` (mixture of isomers), “relative binding affinity” read 13.9 ± 3.4% (ESR2 (Homo sapiens, UniProt Q92731); radioligand competition binding; concentration not given, Z-Z/Z isomer form, with: [3H]estradiol tracer; baseline: estradiol).
For `CCN1CCN(Cc2ccc(NC(=O)c3ccc(C)c(NC(=O)c4cncc(-c5cnn(C)c5)c4)c3)cc2C(F)(F)F)CC1`, phosphorylation read “inhibited” (DDR2 (Homo sapiens, UniProt Q16832); inhibitor, IP and Western blot; 293T expressing wild-type DDR2; concentration not given).
The kon of `C=CCCCCCCO[C@H]1O[C@H](CO)[C@H](O)[C@H](O[C@@H]2O[C@H](CO)[C@H](O)[C@H](O)[C@H]2O[C@@H]2O[C@@H](C)[C@@H](O)[C@@H](O)[C@@H]2O)[C@H]1NC(C)=O` is reported as 230000 M⁻¹ s⁻¹ (ABO G235S/G268A/L266M/R176G; methyl-TROSY NMR titration lineshape analysis; apo enzyme).
With `O=C(N1CCCC1)n1cc(-c2ccc(-c3ccccc3)cc2)nn1` the activity reduction was roughly 40% (Abhd6 (Mus musculus, UniProt Q8R2Y0); competitive ABPP-SILAC; mouse T cells; 3 nM, 4 h).
`CNCC=C(C)C=CC=CC=CC1=C(C)CCCC1(C)C` — result for “mature over immature ratio”: roughly 2 (Rhodopsin (RHO, Homo sapiens, UniProt P08100, T289P); immunoblot; 661W rod opsin T289P; 2.5 µM; baseline: mature over immature).
For `C[C@]12CC[C@@H]3c4ccc(O)cc4C(=NOCC(=O)O)C[C@H]3[C@@H]1CC[C@@H]2O`, the Kd was 27.1 nM (T1, DNA aptamer; APAA; NaCl 100 mM).
With `CC1(CCCN2CCN(c3ccccn3)CC2)Cc2cc(Cl)ccc2C1=O` (stereo not drawn) the Hill slope was -0.59 ± 0.05 (HTR7 (Homo sapiens, UniProt P34969); binding, radioligand binding; HEK293 transfected, membranes; with: [3H]5-HT).
`CCCCCCCCCCSc1nc2c([nH]1)c(=S)n(C)c(=S)n2C` has a reporter activity of 96% (ESR1; reporter gene, ERE luciferase; T47D-KBluc; 10 µM, 24 h, with: estradiol 5 nM; baseline: maximal luciferase activity).
The binding occupancy of `Nc1nc2cnc(C(=O)N3CCOC[C@@H]3c3ccc(C(F)(F)F)cc3)cc2c2c1COC2` is reported as roughly 94% (Protein arginine N-methyltransferase 5, MTA-bound (PRMT5, Homo sapiens, UniProt O14744); SPR; concentration not given, with: MTA; baseline: Rmax).
With `Cc1cc(N2CC[C@](C#N)(C3(C)CC3)C2=O)cc(C(=O)NCc2cc(F)cc(-c3cnn(C)c3)c2)n1` the ΔTm was 4 °C (EPRS1 (Homo sapiens, UniProt P07814); thermal stability).
`COc1cc2c(c(OC)c1)CN(c1cccc(-c3nc4ccc(N5CCN(C)CC5)cc4[nH]3)c1)CC2` — result for binding: “no binding” (Nuclear receptor coactivator 4, residues 383-522 (NCOA4, Homo sapiens, UniProt Q13772); SPR; concentration not given).
`N[C@@H](Cc1ccc(O)c(I)c1)C(=O)O`: “Kd ratio, M41A over wild type” 5 fold (Iodotyrosine deiodinase (IYD, Thermotoga neapolitana, UniProt B9K712, M41A); binding, FMN fluorescence quenching; 25 °C).
For `CCCn1c(=O)c2[nH]c(-c3ccc(OCC(=O)NCCNS(=O)(=O)c4cccc5c(N(C)C)cccc45)cc3)nc2n(CCC)c1=O`, “inverse agonist response” read 1.47 ± 0.08 fold increase (ADORA1 (Homo sapiens, UniProt P30542); CRE reporter gene, inverse agonist; CHO-A1; concentration not given, with: forskolin; baseline: forskolin alone).

Some of these lines once more:
Under “fold increase in Kd”, `CC(C)C[C@H](NC(=O)[C@H](CC(C)C)NC(=O)[C@H](CC(N)=O)NC(=O)[C@H](Cc1c[nH]c2ccccc12)NC(=O)[C@H](Cc1ccc(O)cc1)NC(=O)[C@H](CCC(=O)O)NC(=O)[C@H](C)NC(=O)[C@@H](N)Cc1ccccc1)C(=O)O` is recorded as 5180 fold (Protein Mdm4 (MDM4, Homo sapiens, UniProt O15151); SPR competition binding; baseline: PMI).
The binding occupancy of `Nc1nc2cnc(C(=O)N3CCOC[C@@H]3c3ccc(C(F)(F)F)cc3)cc2c2c1COC2` is reported as roughly 94% (Protein arginine N-methyltransferase 5, MTA-bound (PRMT5, Homo sapiens, UniProt O14744); SPR; concentration not given, with: MTA; baseline: Rmax).
With `O=C(N1CCCC1)n1cc(-c2ccc(-c3ccccc3)cc2)nn1` the activity reduction was roughly 40% (Abhd6 (Mus musculus, UniProt Q8R2Y0); competitive ABPP-SILAC; mouse T cells; 3 nM, 4 h).
